{"data": "Measurements pooled from the literature", "note": "Compare with care: the assays were run in different laboratories."}
{"Structure (SMILES)": "CC(=O)[O-].O.O.O.O.[Co+2].[O-]c1ccc(Br)cc1C=NCCN1CCOCC1", "organism": "Mucor indicus", "setting": "20 µL of 100 µM per disc", "quantity": "inhibition zone diameter", "result": "15 mm"}
{"Structure (SMILES)": "Fc1ccc2c(c1)c1nc3ccc(Br)cc3c-1cn2Cc1cn(-c2ccccc2I)nn1", "organism": "Giardia duodenalis", "test": "UHPLC-Q-TOF-MS, item: PS(P-20:0/22:6)", "system": "trophozoites", "setting": "IC50, 0.2033 h", "how to read": "relative to: 0.25% DMSO", "quantity": "fold change", "result": -325}
{"Structure (SMILES)": "COc1c2c(cc3oc(=O)cc(C)c13)C(=O)c1cc(C)cc(O)c1C2=O", "organism": "Klebsiella aerogenes", "test": "microbial growth, disc diffusion", "setting": "100 µg/disc", "quantity": "inhibition zone", "result": "12 mm"}
{"Structure (SMILES)": "Oc1c(Br)cc(Br)c2nc3c(C(F)(F)F)cc(C(F)(F)F)cc3nc12", "organism": "Enterococcus", "test": "Calgary Biofilm Device", "system": "VRE 700221", "setting": "biofilm", "quantity": "MBC", "result": "0.1 µM"}
{"Structure (SMILES)": "CCOC(=O)C(CC)NC(=O)CN1C(=O)S/C(=C\\c2ccc(C)cc2)C1=O (stereo not shown)", "organism": "Leishmania major", "test": "parasite growth", "setting": "24 h, intracellular, amastigote", "quantity": "IC50", "result": "5.29 µM"}
{"Structure (SMILES)": "CN(C)c1cc(CN2CCc3ccccc3C2)c(O)c2c1C[C@H]1C[C@H]3[C@H](N(C)C)C(O)=C(C(N)=O)C(=O)[C@@]3(O)C(O)=C1C2=O", "organism": "Enterococcus faecalis", "test": "microbial growth, broth dilution", "quantity": "MIC", "result": "0.5 µg/mL"}
{"Structure (SMILES)": "CCOC(=O)C(CC)NC(=O)CN1C(=O)S/C(=C\\c2ccc(OC)cc2)C1=O (stereo not shown)", "organism": "Leishmania major", "test": "parasite growth, resazurin", "setting": "promastigote", "quantity": "IC50", "result": "> 100 µM"}
{"Structure (SMILES)": "Cc1cc2[nH]c(C(=O)NC3CCCCC3)c(CN3CCOCC3)c2s1", "organism": "Giardia duodenalis", "test": "parasite growth", "setting": "48 h", "quantity": "IC50", "result": "> 10 µM"}
{"Structure (SMILES)": "CCOC(=O)C(C)NC(=O)CN1C(=O)N/C(=C\\c2ccc(C)cc2)C1=O (stereo not shown)", "organism": "Leishmania major", "test": "parasite growth", "setting": "24 h, intracellular, amastigote", "quantity": "IC50", "result": "> 10 µM"}
{"Structure (SMILES)": "CN(C)c1cc(CNCc2ccco2)c(O)c2c1C[C@H]1C[C@H]3[C@H](N(C)C)C(O)=C(C(N)=O)C(=O)[C@@]3(O)C(O)=C1C2=O", "organism": "Enterococcus faecalis", "system": "JH2-2(pMV158), Tet L efflux", "quantity": "MIC", "result": "1 µg/mL"}
{"note": "Repeated from above:"}
{"Structure (SMILES)": "CN(C)c1cc(CN2CCc3ccccc3C2)c(O)c2c1C[C@H]1C[C@H]3[C@H](N(C)C)C(O)=C(C(N)=O)C(=O)[C@@]3(O)C(O)=C1C2=O", "organism": "Enterococcus faecalis", "test": "microbial growth, broth dilution", "quantity": "MIC", "result": "0.5 µg/mL"}
